Assay results pooled from the literature.
Parts stem from different laboratories: compare values within a part only.

Study 1
Target: Replicase polyprotein 1ab, polymerase (rep, Severe acute respiratory syndrome coronavirus 2, UniProt P0DTD1)
Read-out: enzyme activity
Mode: inhibitor
Tested at: 20 µM
SMILES | inhibition [%]
O=C(O)CNC(=O)C1C(=O)N(C2CCCCC2)C(=O)N(C2CCCCC2)C1=O | -0.82
O=C(O)C(Cl)Cl | 1.66
NCC(CC(=O)O)c1ccc(Cl)cc1 (racemic) | -5.71
C[C@H](CSC(=O)c1ccccc1)C(=O)N1C[C@@H](Sc2ccccc2)C[C@H]1C(=O)O | 5.87
NCc1ccc(S(N)(=O)=O)cc1 | 21.6
CCCCn1c(-c2ccccc2)nc(-c2ccccc2)c1CN(Cc1ccc2c(c1)OCO2)Cc1ccc2c(c1)OCO2 | -10.7
CCOC(=O)c1ccccc1OC(N)=O | 1.85
CCCC1(CCC)CCC2(CCN(CCCN(CC)CC)C2)CC1 | -1.07
CNC(=O)[C@@H](c1ccccc1)N1CCc2cc(OC)c(OC)cc2[C@@H]1CCc1ccc(C(F)(F)F)cc1 | -1.39
CCC(C)(C)c1ccc(CC(C)CN2C[C@@H](C)O[C@@H](C)C2)cc1 (stereo partly drawn) | -0.05
CC(C)OC(=O)C1=CN(C(=O)c2ccc(F)c(F)c2)CC(C)(C)c2c1[nH]c1ccccc21 | -0.2
O=C(c1cncc(Br)c1)N1CCC(N2CCCC2)CC1 | -4.85
CN(C(=O)C(Cl)Cl)c1ccc(OC(=O)c2ccco2)cc1 | -12.3
CC(=O)Nc1ccc(OC(C)=O)cc1 | -3.45
CNCCCN1c2ccccc2CCc2ccccc21 | 15.4
O=C1N=C2SCCN2C(=O)C1Cc1ccc(Cl)cc1 (stereo not drawn) | 1.16
Cc1ccc(NC(=O)c2ccc(CN3CC[C@H](N(C)C)C3)c(C(F)(F)F)c2)cc1Nc1nccc(-c2cncnc2)n1 | -7.73
Cc1cnc(-c2cnc(NCCNc3ccc(C#N)cn3)nc2-c2ccc(Cl)cc2Cl)[nH]1 | -3.78
C[C@@H]1O[C@@H](OC[C@H]2O[C@@H](Oc3c(-c4ccc(OCCO)c(OCCO)c4)oc4cc(OCCO)cc(O)c4c3=O)[C@H](O)[C@@H](O)[C@@H]2O)[C@H](O)[C@H](O)[C@H]1O | 10.1
O=C(CCCN1CCC2(CC1)C(=O)NCN2c1ccccc1)c1ccc(F)cc1 | -24.2
Clc1ccccc1C(c1ccccc1)(c1ccccc1)n1cccn1 | -6.78
CC(C)(COP(=O)(O)OP(=O)(O)OC[C@H]1O[C@@H](n2cnc3c(N)ncnc32)[C@H](O)[C@@H]1OP(=O)(O)O)[C@@H](O)C(=O)NCCC(=O)NCCS | -3.74
N#Cc1ccc(N2N=C3c4ccc(C(=O)O)cc4CC[C@@H]3[C@@H]2C2CCCC2)cc1Cl | 2.25
C[C@]12CC[C@H](O)CC1=CC[C@@H]1[C@@H]2CC[C@]2(C)C(=O)CC[C@@H]12 | -11
CC1(C)CC[C@]2(NC(=O)C(C)(F)F)CC[C@]3(C)[C@H](C(=O)C=C4[C@@]5(C)C=C(C#N)C(=O)C(C)(C)[C@@H]5CC[C@]43C)[C@@H]2C1 | 2.64

Study 2
Cell line: HEK-293T/ACE2
Tested at: concentration not given
Time: 16 (unit not given)
Baseline: vehicle
Compound | viability [%]
CCCSc1nc(N[C@@H]2C[C@H]2c2ccc(F)c(F)c2)c2nnn([C@@H]3C[C@H](OCCO)[C@@H](O)[C@H]3O)c2n1 | 107
COc1c(C)c2c(c(O)c1C/C=C(\C)CCC(=O)OCCN1CCOCC1)C(=O)OC2 | 84.3
CC(=O)OCC(=O)[C@H]1CC[C@H]2[C@@H]3CCC4=CC(=O)CC[C@]4(C)[C@H]3CC[C@]12C | 99.2
COC(=O)CCc1ccc(OCC(O)CNC(C)C)cc1 (stereo not drawn) | 101
O=C1C(O)=C([C@H]2CC[C@H](c3ccc(Cl)cc3)CC2)C(=O)c2ccccc21 | 92.7
CC(=O)OCC(CCn1cnc2cnc(N)nc21)COC(C)=O | 97.5

Study 3
Target: Interferon regulatory factor 3, full length, phosphomimetic (IRF3, Homo sapiens, UniProt Q14653, residues 1-427, S386D/S396D/S398D/S402D/T404D/S405D)
Technique: protein-binding microarray
Molecule type: double-stranded DNA, one strand shown
Matrix: in vitro
Tested at: 2540 nM top
Notes: 60-bp whole probe
Together with: salmon DNA 0.4 mg/ml
Baseline: random background probes
Reading: higher = stronger binding
Shared flanks, not repeated: GCCTAGCAC … GTGCTAGGTCTTGATTCGCTTGACGCTGCTG
Construct (chain): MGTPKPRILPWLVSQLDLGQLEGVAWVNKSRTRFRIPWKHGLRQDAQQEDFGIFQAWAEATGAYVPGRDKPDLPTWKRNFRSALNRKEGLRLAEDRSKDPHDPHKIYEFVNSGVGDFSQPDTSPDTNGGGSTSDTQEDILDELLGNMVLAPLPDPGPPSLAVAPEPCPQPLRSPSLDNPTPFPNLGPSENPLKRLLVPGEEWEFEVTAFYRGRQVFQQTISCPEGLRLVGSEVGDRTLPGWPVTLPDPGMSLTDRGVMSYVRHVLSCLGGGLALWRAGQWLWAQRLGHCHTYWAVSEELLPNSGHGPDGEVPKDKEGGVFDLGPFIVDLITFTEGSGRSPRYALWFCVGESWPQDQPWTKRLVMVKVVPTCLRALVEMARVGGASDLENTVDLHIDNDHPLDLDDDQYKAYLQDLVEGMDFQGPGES
Sequence | fitted relative affinity [z-score]
TCAAACCTGGGTCTCTGACT | -0.79
TTAGGACTGCGTCTCCTTTA | -0.184
GGGTCTCTTGTTCTCTCTGG | -0.0661
TTAGGTTTACTTCTCCTTTA | 2.86
TCATTTTTCATTTTGTTACT | 3.51
TTAGATTTCAGTTCCTATTA | 3.3
TCATATATTCATATATAACT | 0.984
GACGAACTGAGTCTCGAGAG | -0.468

Study 4
Target: RNA binding protein fox-1 homolog 2, RRM domain, GST-SBP tag (RBFOX2, Homo sapiens, UniProt O43251-10, residues 100-194)
Technique: RNA Bind-n-Seq
Molecule type: RNA
Matrix: in vitro
Tested at: 365 nM
Notes: natural RNA segment, single round, ends assumed
Baseline: no-protein control
Reading: higher = stronger binding
Shared flanks, not repeated: GGGAGUUCUACAGUCCGACGAUC … UGGAAUUCUCGGGUGCCAA
Construct (chain): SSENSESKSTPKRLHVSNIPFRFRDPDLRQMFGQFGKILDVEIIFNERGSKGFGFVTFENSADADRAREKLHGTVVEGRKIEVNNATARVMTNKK
Sequence | RBNS enrichment (R)
CCCUCAAUGAGACUAAGACUUGUGUUGGCUUUUUAAUAUCCUAGUUAGAGAGAAAUUGUAGCACAUUUAAAUUAUUACUCUAAUACUCUUAGACGAUAGAUACCCAUAUU | 0.314
CGUGCUCUCCCUUUUGGUAGGUGUUACUUUAAGAACUGCAGUCAGACUUGCUGUUGCCUGACAAUUAACUCACUGUGAGGAUAGGCACGCACGCUUUUCAUAAUUAACUG | 0.535
UUUCCUGUCAGCUGUUGACACCUUGGUAGGAGCUCUCAUUAUUACAUUCUCCAUUCUCCAUUUCCCUCUUCAAGGAUGGGCAAUCUACCAAAAUCCCUCAAGAUAACCCU | 0.805
AGUGUCAGGCUAGAAAUUGAAUUGCUGAGUUUUGUGUAUCCUUUAAAUUAAAAACCACAAGUGUUUAUUGUAGUGGUUAAACUGUAGCAUCUCAGCAUCUGGGUGGAAGC | 1.45
UGUAGUCCACAUUUUAACACUCAGCAAACAUUCACACAUUCUAAGUUCAACAGGGCUCUUUGAUGACAGCUUUGGGAGGAUAAAUACGACUACGCACUUUAGAUAAGCCU | 0.539
UUCAGCGGCAUCUUAGCAGACUUCAAUAACGCAGCCGUCUCCAUGACGCUCAGAGAGCCCUGCCUCAGCGGCGUCAACGUGAUUAGUUUGCCUAAUUCAUAUUUUCACUU | 0.244
ACACACUGGGCCAGAGAGGCCUGCCUUCUGCCUGCUCUCCUGCACUGACCCUUUGGAGGGGGUCUCUGUGUGCUGAAGCUAACUCAAGAUGGAAAGUGAAACCACAUGUG | 0.428
CUUAGAGGAACUGUAAAUCUAUUGCCCAGUCAUAACAUUUUGAGCUGCAUUUAAGUAGACUAUGGACCGUUAAGCUGGGCAAAUGAAAUGACAAGGGGACGGGGUCUGUG | 0.618

Study 5
Target: Histone acetyltransferase KAT6A, both winged helices, GST fusion (KAT6A, Homo sapiens, UniProt Q92794, residues 1-181)
Technique: protein binding microarray
Molecule type: double-stranded DNA, one strand shown
Matrix: in vitro
Tested at: not given
Notes: 8-mer, flanks averaged, mean of 2 arrays, mostly near background
Baseline: not given
Reading: higher = stronger binding
Target sequence (chain): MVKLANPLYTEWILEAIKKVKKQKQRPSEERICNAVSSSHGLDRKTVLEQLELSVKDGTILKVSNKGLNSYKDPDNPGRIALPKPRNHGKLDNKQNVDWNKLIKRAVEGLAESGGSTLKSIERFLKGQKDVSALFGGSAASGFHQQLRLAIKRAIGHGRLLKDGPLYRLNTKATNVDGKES
Sequence | E-score
TCACAAGA | -0.0401
AGTAGGGA | -0.0925
ACATCGGC | 0.205
CTGATAGA | -0.0903
AATTGCGC | 0.317
ATCAACCA | 0.0253
CAATCGCA | 0.00365
CCCTACCA | 0.0314

Single results of other studies
Target: Replicase polyprotein 1ab, main protease (rep, Severe acute respiratory syndrome coronavirus 2, UniProt P0DTD1)
Read-out: enzyme activity
Mode: inhibitor
SMILES | tested at | notes | endpoint | value
NCc1c[nH]c(=S)n1[C@H]1CCc2c(F)cc(F)cc2C1 | 20 µM | primary screen | inhibition | 97.3%
C[n+]1c2cc(N)ccc2cc2ccc(N)cc21 |  | no DTT | IC50 | 5 µM

Repeated from above (study 1):
SMILES | inhibition [%]
O=C(CCCN1CCC2(CC1)C(=O)NCN2c1ccccc1)c1ccc(F)cc1 | -24.2
O=C(O)CNC(=O)C1C(=O)N(C2CCCCC2)C(=O)N(C2CCCCC2)C1=O | -0.82
O=C1N=C2SCCN2C(=O)C1Cc1ccc(Cl)cc1 (stereo not drawn) | 1.16
CC1(C)CC[C@]2(NC(=O)C(C)(F)F)CC[C@]3(C)[C@H](C(=O)C=C4[C@@]5(C)C=C(C#N)C(=O)C(C)(C)[C@@H]5CC[C@]43C)[C@@H]2C1 | 2.64
